# Results from different studies.
# Numbered parts are unrelated; each lists some results of a single study. Positions count from the first letter of the parent shown.

# Set 1
# Target: RING finger protein unkempt homolog, zinc fingers 1-6, GST-SBP tag (UNK, Homo sapiens, UniProt Q9C0B0, residues 30-357)
# Technique: RNA Bind-n-Seq
# Molecule type: RNA
# Matrix: in vitro
# Tested at: not given
# Notes: RNA with constant flanks, human-mouse chimeric sites, ends assumed
# Baseline: input RNA pool
# Direction: higher = stronger binding
# Shared flanks, not repeated: GGGAGUUCUACAGUCCGACGAUC … CAACAGAGGAUUGAGCAUCA
# Construct (chain): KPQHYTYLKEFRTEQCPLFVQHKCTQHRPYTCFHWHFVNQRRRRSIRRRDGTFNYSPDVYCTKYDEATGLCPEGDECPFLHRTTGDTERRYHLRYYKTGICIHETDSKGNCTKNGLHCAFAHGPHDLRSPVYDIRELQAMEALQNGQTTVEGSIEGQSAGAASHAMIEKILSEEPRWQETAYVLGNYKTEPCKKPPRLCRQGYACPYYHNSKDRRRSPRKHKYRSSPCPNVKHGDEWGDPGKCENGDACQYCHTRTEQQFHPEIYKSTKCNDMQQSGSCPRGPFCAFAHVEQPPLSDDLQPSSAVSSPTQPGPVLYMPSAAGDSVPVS
Oligonucleotide,bound/input enrichment
GUGACUGACAUUAAAAUUUCCCCUCAGCAAAGAAGUGCAGUAGUCACAAUAAUCCCUUCUGUGGUGAGUGCCAGUCAGAUUGUGGAGCUGGUCCCAGACCUCAGUUUAGACAUGGGAACU,0.336 ratio
UUAAACACCAAGCUGAUGGACUCUGAUGGCCUCCAUCUCUCAGGCACGUGUGCCUUCUCUUAGUCCCUGUUUUCGGGAUGUUAUGAAUCUCAGUACUGUUUGACAGAAGCACCAGCUUUG,0.172 ratio
GCGGCAGAAUCAUGGUGGACAUAAUGCAGCUCCCCAAAGCGCGCGUCAACGCCGGCAUGUUACCACAGUAUAUCGACCGGCCCGUGUGCUUCGUGGGGAAGCUGGAAAAGAUUCAUCCCA,0.0795 ratio
GAUAAGAAAAGCUUGUUGGAGACCCGCUUGCACAUCACUGGUAGAGACCUGAGGUGUCAAAUAGCUGAAACUUUCGGAUUUCAAGAAAAUUACAUCAAGAUCGUAAUAAAUAAGAAACAG,0.305 ratio
GUGACAGGUGUUAAGAUUUCCCCUCAGAAAAGAACUGCAGUAGUCACCAUAAUUCCAUCUGUGGUGAGUGCCAGUCAGAUUGUGGAGCUGGUCCCAGACCUCAGUUUAGACAUGGGAACU,0.349 ratio

# Set 2
# Target: CCNB1, cyclin fold, Cln2 fusion (human)
# Technique: yeast growth competition, sequencing
# Matrix: yeast
# Notes: weak parent motif
# Baseline: not given
# Direction: higher = stronger binding
# Parent: CDKN1B docking peptide (human); PSACRNLFGPVDH
Substitution,normalised enrichment score
S2L,0.428
F8N,0.256
H13C,-0.0373
A3F,0.731
V11R,0.136
A3E,0.57

# Set 3
# Target: Histone acetyltransferase KAT6A, winged helix 1, GST fusion (KAT6A, Homo sapiens, UniProt Q92794, residues 1-85)
# Technique: protein binding microarray
# Molecule type: double-stranded DNA, one strand shown
# Matrix: in vitro
# Tested at: not given
# Notes: 8-mer, flanks averaged, mean of 2 arrays, mostly near background
# Baseline: not given
# Direction: higher = stronger binding
# Residues (chain): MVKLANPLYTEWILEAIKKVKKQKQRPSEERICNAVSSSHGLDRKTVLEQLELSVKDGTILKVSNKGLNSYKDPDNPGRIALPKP
Oligonucleotide,E-score
CAGAAGCA,-0.0996
GTTAATGA,-0.279
CGAAGGGC,0.18
CGGATCAG,0.0149
TATCAGAA,-0.077

# Further values, each from its own experiment
Substance,target,test,test system,conditions,how to read,measurement,value
"PhoQ, residues 284 288 289 292 302 303 SCKMEA","PhoP, residues 12 14 15 18 19 NIMAP (Escherichia coli, UniProt P23836)","Sort-seq, refers to: YFP reporter",E. coli,"PhoQ-PhoP variant library, added: 10 µM Mg2+","baseline: high Mg2+ state, higher = stronger signaling",fold induction,0.746

# For quick reference, copied from above (set 2):
Substitution,normalised enrichment score
V11R,0.136
A3F,0.731
